Published values gathered from unrelated publications.
Compare with care: the assays were run in different laboratories. Numbers after ± are the reported error.
UniProt P00811, sequence (whole entry, looked up): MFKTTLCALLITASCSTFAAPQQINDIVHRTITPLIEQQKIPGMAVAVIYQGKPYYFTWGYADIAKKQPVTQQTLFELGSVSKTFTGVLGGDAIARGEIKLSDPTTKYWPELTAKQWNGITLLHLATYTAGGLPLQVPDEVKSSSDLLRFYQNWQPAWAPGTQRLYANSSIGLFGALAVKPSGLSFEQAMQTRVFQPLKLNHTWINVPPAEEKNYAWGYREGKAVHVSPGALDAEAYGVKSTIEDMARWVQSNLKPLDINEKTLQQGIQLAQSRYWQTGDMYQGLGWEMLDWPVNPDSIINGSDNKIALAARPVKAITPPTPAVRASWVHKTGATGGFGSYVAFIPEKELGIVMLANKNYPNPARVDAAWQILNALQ
UniProt P07814, sequence (whole entry, looked up): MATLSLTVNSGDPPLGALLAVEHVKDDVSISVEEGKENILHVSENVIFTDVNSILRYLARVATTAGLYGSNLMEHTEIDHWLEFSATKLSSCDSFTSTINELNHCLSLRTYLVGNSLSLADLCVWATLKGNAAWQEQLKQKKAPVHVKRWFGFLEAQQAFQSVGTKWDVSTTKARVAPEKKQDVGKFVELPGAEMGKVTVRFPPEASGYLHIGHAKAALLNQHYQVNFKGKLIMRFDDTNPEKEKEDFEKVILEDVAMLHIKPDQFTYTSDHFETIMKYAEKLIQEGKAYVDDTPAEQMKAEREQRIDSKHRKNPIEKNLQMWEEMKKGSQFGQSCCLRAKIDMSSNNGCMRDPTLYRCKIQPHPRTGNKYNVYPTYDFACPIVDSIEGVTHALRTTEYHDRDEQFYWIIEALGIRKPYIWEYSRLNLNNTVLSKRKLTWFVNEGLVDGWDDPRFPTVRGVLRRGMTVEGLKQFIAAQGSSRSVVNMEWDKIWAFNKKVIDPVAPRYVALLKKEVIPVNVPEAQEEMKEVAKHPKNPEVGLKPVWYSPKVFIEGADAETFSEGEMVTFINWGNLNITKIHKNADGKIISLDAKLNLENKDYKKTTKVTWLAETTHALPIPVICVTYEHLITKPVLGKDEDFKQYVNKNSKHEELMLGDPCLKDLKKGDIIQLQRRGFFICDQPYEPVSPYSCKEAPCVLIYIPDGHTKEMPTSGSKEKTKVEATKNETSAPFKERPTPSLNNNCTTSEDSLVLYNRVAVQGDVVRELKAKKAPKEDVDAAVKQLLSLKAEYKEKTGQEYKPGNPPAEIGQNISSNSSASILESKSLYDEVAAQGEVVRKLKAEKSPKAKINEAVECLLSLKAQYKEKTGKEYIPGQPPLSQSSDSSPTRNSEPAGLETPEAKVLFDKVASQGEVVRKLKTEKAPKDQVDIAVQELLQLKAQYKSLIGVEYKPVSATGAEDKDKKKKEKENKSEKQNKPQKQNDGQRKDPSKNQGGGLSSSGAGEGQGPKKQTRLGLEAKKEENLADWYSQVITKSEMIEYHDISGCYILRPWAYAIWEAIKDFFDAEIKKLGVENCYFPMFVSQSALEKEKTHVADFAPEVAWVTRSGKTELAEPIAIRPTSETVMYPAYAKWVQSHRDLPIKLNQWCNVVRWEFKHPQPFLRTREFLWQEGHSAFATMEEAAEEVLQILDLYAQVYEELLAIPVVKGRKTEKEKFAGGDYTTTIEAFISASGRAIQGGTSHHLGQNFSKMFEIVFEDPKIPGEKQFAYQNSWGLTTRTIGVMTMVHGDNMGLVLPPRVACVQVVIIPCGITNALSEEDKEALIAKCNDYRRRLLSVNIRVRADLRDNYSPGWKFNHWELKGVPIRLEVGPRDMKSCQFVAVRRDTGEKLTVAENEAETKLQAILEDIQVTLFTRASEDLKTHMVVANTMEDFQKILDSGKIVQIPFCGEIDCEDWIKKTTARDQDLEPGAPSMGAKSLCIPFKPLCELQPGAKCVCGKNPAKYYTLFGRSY
UniProt Q96SW2, sequence (whole entry, looked up): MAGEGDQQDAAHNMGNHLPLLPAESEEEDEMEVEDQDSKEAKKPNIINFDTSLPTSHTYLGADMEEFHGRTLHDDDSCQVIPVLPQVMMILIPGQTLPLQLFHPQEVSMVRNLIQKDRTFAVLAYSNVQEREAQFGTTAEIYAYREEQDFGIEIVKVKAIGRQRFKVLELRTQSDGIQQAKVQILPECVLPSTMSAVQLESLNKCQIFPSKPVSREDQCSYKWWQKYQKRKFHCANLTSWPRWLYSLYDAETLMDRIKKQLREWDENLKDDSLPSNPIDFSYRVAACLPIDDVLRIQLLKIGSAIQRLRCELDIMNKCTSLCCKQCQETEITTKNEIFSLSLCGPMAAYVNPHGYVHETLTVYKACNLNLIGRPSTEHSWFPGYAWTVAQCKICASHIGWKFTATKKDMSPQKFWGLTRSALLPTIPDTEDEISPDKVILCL
UniProt P08138, sequence (whole entry, looked up): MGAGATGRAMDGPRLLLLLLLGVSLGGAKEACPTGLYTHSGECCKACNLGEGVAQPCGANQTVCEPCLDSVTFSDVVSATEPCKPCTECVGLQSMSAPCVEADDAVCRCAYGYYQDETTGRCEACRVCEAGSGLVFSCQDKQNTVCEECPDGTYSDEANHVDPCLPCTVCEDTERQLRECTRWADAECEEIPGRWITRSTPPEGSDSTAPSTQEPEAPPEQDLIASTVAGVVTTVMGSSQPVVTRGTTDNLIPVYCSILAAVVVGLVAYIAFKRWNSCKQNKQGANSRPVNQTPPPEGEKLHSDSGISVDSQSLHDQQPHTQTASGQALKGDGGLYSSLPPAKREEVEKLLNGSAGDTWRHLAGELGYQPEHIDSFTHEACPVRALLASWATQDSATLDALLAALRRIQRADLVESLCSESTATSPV
UniProt Q8N8S7, sequence (whole entry, looked up): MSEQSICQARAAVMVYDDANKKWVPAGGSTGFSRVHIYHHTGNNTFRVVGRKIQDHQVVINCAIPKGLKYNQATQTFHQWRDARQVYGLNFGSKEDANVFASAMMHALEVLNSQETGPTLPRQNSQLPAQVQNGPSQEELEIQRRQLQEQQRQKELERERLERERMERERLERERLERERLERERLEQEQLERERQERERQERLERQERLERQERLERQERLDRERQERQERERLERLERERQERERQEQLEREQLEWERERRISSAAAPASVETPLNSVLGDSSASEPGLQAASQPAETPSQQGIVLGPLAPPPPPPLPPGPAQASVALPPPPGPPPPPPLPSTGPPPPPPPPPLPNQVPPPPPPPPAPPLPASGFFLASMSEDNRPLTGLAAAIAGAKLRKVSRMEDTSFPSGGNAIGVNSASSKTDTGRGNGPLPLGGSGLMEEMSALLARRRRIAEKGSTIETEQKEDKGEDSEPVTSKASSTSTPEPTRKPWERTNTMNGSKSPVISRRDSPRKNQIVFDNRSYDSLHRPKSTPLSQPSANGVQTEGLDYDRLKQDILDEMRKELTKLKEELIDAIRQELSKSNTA

| SMILES | target | assay | conditions | Kd |
| --- | --- | --- | --- | --- |
| CC(=O)N[C@@H](CO)C(=O)N[C@@H](Cc1ccccc1)C(=O)N[C@@H](CCC(=O)O)C(=O)N[C@@H](Cc1ccccc1)C(=O)N1CCC[C@]12C=C[C@@H]1CC[C@@H](C(=O)N3CCC[C@H]3C(=O)N3CCC[C@H]3C(=O)N[C@H](C(=O)N[C@@H](CCC(=O)O)C(=O)N[C@@H](CC(=O)O)C(=O)N[C@@H](CCC(=O)O)C(=O)N[C@@H](CC(C)C)C(N)=O)[C@@H](C)O)N1C2=O | Protein enabled homolog (ENAH, UniProt Q8N8S7) | binding, fluorescence | – | 12 µM |
| CC[C@H](C)[C@@H]1NC(=O)[C@@H](C)NC(=O)[C@H](CCC(=O)N[C@@H](CCCCN)C(N)=O)NC(=O)[C@@H](C)NC(=O)[C@@H](C)NC(=O)[C@H](Cc2c[nH]c3ccccc23)NC(=O)[C@H](Cc2ccc(O)cc2)NC(=O)[C@H](CCCNC(=N)N)NC(=O)[C@H](Cc2ccc(F)cc2)NC1=O | EPRS1 (Homo sapiens, UniProt P07814) | binding | – | 0.6 µM |
| CC[C@H](C)[C@H](NC(=O)[C@@H](NC(=O)[C@@H](N)CCC(N)=O)C(C)C)C(=O)N[C@H](C(=O)N[C@H](C(=O)NCC(=O)N[C@H]1CC(=O)NC1=O)[C@@H](C)CC)[C@@H](C)O | Protein cereblon, with DDB1 (CRBN, Homo sapiens, UniProt Q96SW2) | binding | – | 0.0539 µM |
| CC[C@H](C)[C@H](NC(=O)[C@H](CCCCN)NC(=O)[C@H](C)NC(=O)[C@H](CCCNC(=N)N)NC(=O)[C@H](CCCCN)NC(=O)[C@H](CCC(N)=O)NC(=O)[C@H](CCC(N)=O)NC(=O)[C@H](CC(N)=O)NC(=O)[C@@H](NC(=O)[C@H](CS)NC(=O)[C@H](CC(N)=O)NC(=O)[C@@H]1CCCN1C(=O)[C@H](CC(=O)O)NC(=O)[C@H](CC(C)C)NC(=O)[C@H](C)NC(=O)[C@H](C)NC(=O)[C@H](CCC(=O)O)NC(=O)[C@H](Cc1c[nH]c2ccccc12)NC(=O)[C@H](Cc1ccc(O)cc1)NC(=O)[C@H](CCCNC(=N)N)NC(=O)[C@H](CC(N)=O)NC(=O)[C@H](CCCNC(=N)N)NC(=O)[C@H](CCSC)NC(=O)[C@H](CCC(=O)O)NC(=O)[C@H](CCCCN)NC(=O)[C@H](CO)NC(=O)[C@H](Cc1ccccc1)NC(C)=O)[C@@H](C)O)C(=O)N[C@@H](CCCNC(=N)N)C(=O)N[C@@H](CO)C(=O)N[C@H](C(=O)N[C@@H](Cc1ccc(O)cc1)C(=O)N[C@@H](CCC(=O)O)C(=O)N[C@@H](CCC(=O)O)C(=O)NCC(=O)N[C@@H](CCC(=O)O)C(N)=O)[C@@H](C)CC | ERBB2 (Homo sapiens, UniProt P04626) | binding, SPR | – | 0.067 µM |
| COC(=O)[C@@]1(O)C[C@H]2O[C@]1(C)n1c3ccccc3c3c4c(c5c6ccccc6n2c5c31)C(=O)NC4 | Tumor necrosis factor receptor superfamily member 16 (Homo sapiens, UniProt P08138) | binding, SPR | – | 0.346 µM |
| C=CC1CN(Cc2ccccn2)C(=O)C2CCCC1N2S(=O)(=O)c1cc(Cl)cc(Cl)c1 (stereo not drawn) | uncharacterized protein, residues 23-253 (Pseudomonas aeruginosa, UniProt Q9HYX8) | binding, competitive fluorescence polarization | 30 min, protein 40 nM, added: fluorescent tracer 1 nM | 0.038 ± 0.006 µM |
| C[C@@H](O)[C@H](NC(=O)c1ccc(C#CC#Cc2ccccc2)cc1)C(=O)NCC1(C)NC(=O)NC1=O (stereo partly drawn) | UDP-3-O-acyl-N-acetylglucosamine deacetylase (Pseudomonas aeruginosa, UniProt P47205, C40S) | thermal shift | – | > 100 µM |
| CCC(C)C(NC(=O)Nc1ccc2c(c1)OCO2)C(=O)O (stereo not drawn) | Beta-lactamase (ampC, Escherichia coli K-12, UniProt P00811) | – | – | 4100 µM |
| CC[C@H](C)[C@H](NC(=O)[C@@H](NC(=O)CC(NC(=O)[C@H](Cc1ccccc1)NC(=O)[C@H](C)NC(=O)[C@H](CCCNC(=N)N)NC(=O)CNC(=O)[C@@H]1CCCN1C(=O)CNC(=O)[C@@H](N)CCCNC(=N)N)c1ccccc1[N+](=O)[O-])[C@@H](C)O)C(=O)O (stereo partly drawn) | H-2 class I histocompatibility antigen, D-D alpha chain, 18 (H2-D1, Mus musculus, UniProt P01900) | thermodynamic cycle calculation | – | 0.38 µM |

Some of these lines once more:
| SMILES | target | assay | conditions | Kd |
| --- | --- | --- | --- | --- |
| C=CC1CN(Cc2ccccn2)C(=O)C2CCCC1N2S(=O)(=O)c1cc(Cl)cc(Cl)c1 (stereo not drawn) | uncharacterized protein, residues 23-253 (Pseudomonas aeruginosa, UniProt Q9HYX8) | binding, competitive fluorescence polarization | 30 min, protein 40 nM, added: fluorescent tracer 1 nM | 0.038 ± 0.006 µM |
